Published values gathered from unrelated publications.
Lines come from different studies, so protocols differ. Several values in a cell are separate wells, animals, samples, runs or records. ± gives the spread as reported.
LGB: Beta-lactoglobulin (LGB, Bos taurus, UniProt P02754)
L-ornithine N(5)-monooxygenase: L-ornithine N(5)-monooxygenase (Neosartorya fumigata, UniProt E9QYP0)
CYP1B1: Cytochrome P450 1B1 (CYP1B1, Homo sapiens, UniProt Q16678)
B1: acrA (Escherichia coli, UniProt P0AE06); N-terminal lipid at C25; chain CDDKQAQQGGQQMPAVGVVTVKTEPLQITTELPGRTSAYRIAEVRPQVSGIILKRNFKEGSDIEAGVSLYQIDPATYQATYDSAKGDLAKAQAAANIAQLTVNRYQKLLGTQYISKQEYDQALADAQQANAAVTAAKAAVETARINLAYTKVTSPISGRIGKSNVTEGALVQNGQATALATVQQLDPIYVDVTQSSNDFLRLKQELANGTLKQENGKAKVSLITSDGIKFPQDGTLEFSDVTVDQTTGSITLRAIFPNPDHTLLPGMFVRARLEEGLNPNAILVPQQGVTRTPRGDATVLVVGADDKVETRPIVASQAIGDKWLVTEGLKAGDRVVISGLQKVRPGVQVKAQEVTADNNQQAASGAQPEQSKS

Molecule | tested on | test | test system | conditions | quantity | result
CC1=C(/C=C/C(C)=C/C=C/C(C)=C/C=C/C=C(C)/C=C/C=C(C)/C=C/C2=C(C)CCCC2(C)C)C(C)(C)CCC1 | LGB | binding |  |  | Kd | 2.27 ± 0.03 µM
O=C1OC2c3ccccc3CC2/C1=C\O (racemic) | RMS3 (Lathyrus oleraceus, UniProt A0A109QYD3) | binding, tryptophan fluorescence |  |  | Kd | 271 µM
COc1cc(C(=O)NS(=O)(=O)c2ccccc2C)ccc1Cc1cn(C)c2ccc(NC(=O)OC3CCCC3)cc12 | dnaK (Escherichia coli, UniProt P0A6Y8) | binding, tryptophan fluorescence |  | 20 min, 37 °C, added: ATP 1 mM | Kd | 13 ± 1.7 µM
Nc1ncnc2c1ncn2[C@H]1C[C@H](O)[C@@H](COP(=O)(O)OP(=O)(O)OP(=O)(O)O)O1 | DNA-directed DNA polymerase (43, Escherichia phage RB69, UniProt Q38087, D222A/D327A) | pre-steady-state kinetics |  | dNTP incorporation opposite tC° | Kd | 1700 ± 190 µM
Nc1nc2c(ncn2[C@@H]2O[C@H](COP(=O)(O)OP(=O)(O)OP(=O)(O)O)[C@@H](O)[C@H]2O)c(=O)[nH]1 | GMP reductase (GMPR, Leishmania major, UniProt Q4QEB3) | binding, fluorescence titration |  | second site, no NADPH | Kd | 369 ± 18 µM
B1 (acrA) | acrB C493S/C887S/S1043C (Escherichia coli, UniProt P31224) | SPR |  | two-state model, association | k1 | 23900 M⁻¹ s⁻¹
NC(=O)C1=CN([C@@H]2O[C@H](COP(=O)(O)OP(=O)(O)OC[C@H]3O[C@@H](n4cnc5c(N)ncnc54)[C@H](OP(=O)(O)O)[C@@H]3O)[C@@H](O)[C@H]2O)C=CC1 | L-ornithine N(5)-monooxygenase | fluorescence polarization displacement |  | pH 7.0, added: 30 nM fluorescent probe | Kd | 3.3 ± 0.1 µM
CC#Cc1ccc2ccc3cccc4ccc1c2c34 | CYP1B1 | binding, fluorescence |  | pH 7.4 | Kd | 1.9 µM and < 2.5 µM
[Cl-].[Cl-].[Mg+2] | Genome polyprotein, NS3 helicase domain (Hepatitis C virus genotype 1b, UniProt Q9WMX2) | binding, FRET |  | pH 6.25, added: 2 µM mantADP-BeF3 | Kd | 153 µM
CC(C)(C)c1cc(S)cc(C(C)(C)C)c1O | ktrA (Bacillus subtilis, UniProt O32080) | binding, thermal shift |  |  | Kd | 25 µM
[C-]#[O+] | ferrous H-NOX (Nostoc sp.) | koff over kon |  |  | Kd | ≤ 8 µM
COc1ncc(C[n+]2csc(CCOP(=O)(O)OP(=O)(O)O)c2C)c(N)n1 | aceE (Escherichia coli, UniProt P0AFG8) | binding |  | pH 7 | Kd | 2.68 ± 0.56 µM
O=C(O)COc1ccc(Cl)cc1Cl | PIN8 (Arabidopsis thaliana, UniProt Q9LFP6) | cell-free assay |  |  | Kd | 60 µM
5′-methylthioadenosine | S-methyl-5'-thioadenosine phosphorylase (MTAP, Homo sapiens, UniProt Q13126) | ligand, isothermal titration calorimetry |  | pH 7.4, 25 °C, first set of sites | Kd | 0.008 ± 0.005 µM
Nc1nc2c(ncn2[C@H]2C[C@H](O)[C@@H](COP(=O)(O)OP(=O)(O)OP(=O)(O)O)O2)c(=O)[nH]1 | DNA-directed DNA polymerase, with primer/template (43, Escherichia phage RB69, UniProt Q38087, D222A/D327A) | binding, fluorescence titration |  | opposite tC°, dideoxy primer | Kd | 110 ± 27 µM
CC1=C[C@H](O)CC(C)(C)[C@H]1/C=C/C(C)=C/C=C/C(C)=C/C=C/C=C(C)/C=C/C=C(C)/C=C/C1=C(C)C[C@@H](O)CC1(C)C | LGB | binding |  |  | Kd | 1.73 ± 0.02 µM
CC(=O)N[C@@H](CC(C)C)C(=O)N[C@@H](CCCCN)C(=O)N[C@@H](CCCCN)C(=O)N[C@@H](CC(C)C)C(=O)N[C@@H](CC(C)C)C(=O)N[C@@H](CCCCN)C(=O)N[C@@H](CC(C)C)C(=O)N[C@@H](CC(C)C)C(=O)N[C@@H](CCCCN)C(=O)N[C@@H](CCCCN)C(=O)N[C@@H](CC(C)C)C(=O)N[C@@H](CC(C)C)C(=O)N[C@@H](CCCCN)C(=O)N[C@@H](Cc1c[nH]c2ccccc12)C(=O)N[C@@H](C)C(=O)NCC(N)=O | HCV IRES domain IV hairpin | competitive fluorescence anisotropy |  | pH 7.4, 20 °C, added: rhodamine-Rev peptide | Kd | 0.00069 ± 6e-05 µM

Molecule | tested on | test | test system | conditions | quantity | result
Ristocetin | Lys-D-Ala-D-Ala peptide MBP fusion | binding, SPR |  | 25 °C | Kd | 1.7 ± 0.3 µM
maltotriose | malE (Escherichia coli, UniProt P0AEX9) | ClyA nanopore single-channel recording |  |  | Kd | 0.15 ± 0.01 µM
[N-]=[N+]=Nc1ccc[n+]([C@@H]2O[C@H](COP(=O)([O-])OP(=O)(O)OC[C@H]3O[C@@H](n4cnc5c(N)ncnc54)[C@H](O)[C@@H]3O)[C@@H](O)[C@H]2O)c1 | glucose dehydrogenase (Bacillus megaterium) | tryptophan fluorescence quenching |  | pH 7.5, added: gluconolactone | Kd | 142 µM
Nc1ncnc2c1ncn2[C@@H]1O[C@H](COP(=O)(O)OP(=O)(O)OP(=O)(O)OP(=O)(O)OP(=O)(O)OP(=O)(O)OC[C@H]2O[C@@H](n3cnc4c(N)ncnc43)[C@H](O)[C@@H]2O)[C@@H](O)[C@H]1O | guaB (Bacillus subtilis, UniProt P21879) |  |  |  | Kd | 0.8 ± 0.2 µM
CC(C)[C@@H]1NC(=O)[C@@H]2CCCN2C(=O)[C@H](Cc2c[nH]cn2)NC(=O)[C@@H](N)CSSC[C@@H](C(=O)NCC(=O)NCC(=O)NCC(=O)NCC(=O)N[C@@H](CO)C(=O)N2CCC[C@H]2C(=O)N[C@@H](C)C(=O)N2CCC[C@H]2C(=O)N[C@@H](C)C(=O)N[C@@H](CCCCN)C(=O)O)NC(=O)[C@H](CCC(N)=O)NC(=O)[C@H](CCCCN)NC(=O)[C@H](Cc2ccc(O)cc2)NC(=O)[C@H](CCCNC(=N)N)NC(=O)[C@H](CCCNC(=N)N)NC(=O)[C@@H]2CCCN2C(=O)CNC(=O)[C@H](Cc2ccccc2)NC1=O | sapA (Haemophilus influenzae, UniProt Q4QL73) | binding, SPR |  | 25 °C, added: immobilised oxidised defensin loop peptide | Kd | 0.0095 µM
melittin |  | membrane partitioning, CD van't Hoff analysis | POPC/POPG LUVs 75:25% | concentration not given, 5 to 60 °C | heat capacity change | -0.35 kcal/mol/K
CC(C)[C@H](NC(=O)[C@H](CC(N)=O)NC(=O)CNC(=O)[C@H](CC(=O)O)NC(=O)[C@H](CCCNC(=N)N)NC(=O)[C@H](CC(N)=O)NC(=O)[C@@H](N)CC(=O)O)C(=O)N[C@@H](Cc1ccc(O)cc1)C(=O)N[C@@H](Cc1ccc(O)cc1)C(=O)N[C@@H](Cc1ccccc1)C(=O)O | Serine endoprotease DegS (degS, Escherichia coli, UniProt P0AEE3, K243D) |  |  |  | Kd | 0.14 µM
CC(=O)N[C@@H](CC(C)C)C(=O)N[C@@H](CCCCN)C(=O)N[C@@H](CCCCN)C(=O)N[C@@H](CC(C)C)C(=O)N[C@@H](CC(C)C)C(=O)N[C@@H](CCCCN)C(=O)N[C@@H](CC(C)C)C(=O)N[C@@H](Cc1c[nH]c2ccccc12)C(=O)N[C@@H](CCCCN)C(=O)N[C@@H](CCCCN)C(=O)N[C@@H](CC(C)C)C(=O)N[C@@H](CC(C)C)C(=O)N[C@@H](CCCCN)C(=O)N[C@@H](CC(C)C)C(=O)N[C@@H](C)C(=O)NCC(N)=O | HCV IRES domain IV hairpin | competitive fluorescence anisotropy |  | pH 7.4, 20 °C, added: rhodamine-Rev peptide | Kd | 0.092 ± 0.01 µM
O=P(O)(O)OP(=O)(O)OP(=O)(O)OC[C@H]1O[C@@H](n2cnc3c(NCCc4ccccc4)ncnc32)[C@H](O)[C@@H]1O | CFTR NBD1 | binding, thermal shift |  |  | Kd | 0.3 ± 0.03 µM
CC(=O)N[C@@H](C)C(=O)N[C@H]1CSSC[C@@H](C(=O)NCC(=O)N[C@@H](CO)C(=O)NCC(=O)N[C@@H](CO)C(=O)N[C@@H](CC(=O)O)C(=O)N[C@@H](Cc2ccc(O)cc2)C(=O)N[C@@H](CCCCN)C(=O)N[C@@H](CC(=O)O)C(=O)N[C@@H](CC(=O)O)C(=O)N[C@@H](CC(=O)O)C(=O)N[C@@H](CC(=O)O)C(=O)N[C@@H](CCCCN)C(N)=O)NC(=O)[C@H](Cc2ccccc2)NC(=O)[C@@H]2CCCN2C(=O)[C@H](Cc2c[nH]c3ccccc23)NC(=O)[C@H](CC(C)C)NC(=O)[C@H](CC(C)C)NC(=O)[C@H](CCC(=O)O)NC(=O)[C@H](Cc2ccccc2)NC(=O)[C@H](Cc2c[nH]cn2)NC(=O)[C@H](CCCNC(=N)N)NC(=O)[C@H](Cc2ccccc2)NC1=O | Gastric inhibitory polypeptide receptor, extracellular domain (GIPR, Homo sapiens, UniProt P48546) | binding, biolayer interferometry |  |  | Kd | 0.031 µM
[Fe+2] | methionine aminopeptidase (Acinetobacter baumannii, UniProt A0A7U4DGZ4) | metal binding, activator, activity titration | ATCC 17978 | divalent metal ion Kd, added: Met-AMC substrate | Kd | 0.14 µM
CCCCCCC(CCCCCCCCCCC(=O)O)N(C)c1ccc([N+](=O)[O-])c2nonc12 (stereo not shown) | Sterol carrier protein 2 (Homo sapiens, UniProt P22307) | binding, fluorescence |  |  | Kd | 0.22 µM
C#Cc1ccc2ccc3cccc4ccc1c2c34 | CYP1B1 | binding, fluorescence |  | pH 7.4 | Kd | < 2.5 µM and 1.9 µM
Nc1ccn([C@H]2C[C@H](O)[C@@H](COP(=O)(O)OP(=O)(O)OP(=O)(O)O)O2)c(=O)n1 | DNA polymerase IV, with DNA (dbh, Saccharolobus solfataricus, UniProt Q97W02) | dNTP incorporation, substrate, single-turnover kinetics |  | 37 °C, insertion opposite lesion, added: DNA with dG-C8-N-ABA lesion, Dpo4 120 nM | Kd | 510 ± 60 µM
NC(=O)c1ccc[n+]([C@@H]2O[C@H](COP(=O)([O-])OP(=O)(O)OC[C@H]3O[C@@H](n4cnc5c(N)ncnc54)[C@H](O)[C@@H]3O)[C@@H](O)[C@H]2O)c1 | L-ornithine N(5)-monooxygenase | fluorescence polarization displacement |  | pH 7.0, added: 30 nM fluorescent probe | Kd | 70 ± 20 µM
[Ni+2] | methionine aminopeptidase (Acinetobacter baumannii, UniProt V5VCW7) | metal binding, activator, activity titration | ATCC 17978 | divalent metal ion Kd, added: Met-AMC substrate | Kd | 1.84 µM
Nc1ncnc2c1ncn2[C@@H]1O[C@H](COP(=O)(O)OP(=O)(O)OP(=O)(O)O)[C@@H](O)[C@H]1O | Chemotaxis protein CheA, P4 domain (cheA, Thermotoga maritima, UniProt Q56310) | binding, competition with TNP analogue |  | 4 °C, added: Mg2+ | Kd | 11 ± 4 µM

For quick reference, copied from above:
Molecule | tested on | test | test system | conditions | quantity | result
melittin |  | membrane partitioning, CD van't Hoff analysis | POPC/POPG LUVs 75:25% | concentration not given, 5 to 60 °C | heat capacity change | -0.35 kcal/mol/K
CC1=C[C@H](O)CC(C)(C)[C@H]1/C=C/C(C)=C/C=C/C(C)=C/C=C/C=C(C)/C=C/C=C(C)/C=C/C1=C(C)C[C@@H](O)CC1(C)C | LGB | binding |  |  | Kd | 1.73 ± 0.02 µM
O=C1OC2c3ccccc3CC2/C1=C\O (racemic) | RMS3 (Lathyrus oleraceus, UniProt A0A109QYD3) | binding, tryptophan fluorescence |  |  | Kd | 271 µM
CC(C)[C@@H]1NC(=O)[C@@H]2CCCN2C(=O)[C@H](Cc2c[nH]cn2)NC(=O)[C@@H](N)CSSC[C@@H](C(=O)NCC(=O)NCC(=O)NCC(=O)NCC(=O)N[C@@H](CO)C(=O)N2CCC[C@H]2C(=O)N[C@@H](C)C(=O)N2CCC[C@H]2C(=O)N[C@@H](C)C(=O)N[C@@H](CCCCN)C(=O)O)NC(=O)[C@H](CCC(N)=O)NC(=O)[C@H](CCCCN)NC(=O)[C@H](Cc2ccc(O)cc2)NC(=O)[C@H](CCCNC(=N)N)NC(=O)[C@H](CCCNC(=N)N)NC(=O)[C@@H]2CCCN2C(=O)CNC(=O)[C@H](Cc2ccccc2)NC1=O | sapA (Haemophilus influenzae, UniProt Q4QL73) | binding, SPR |  | 25 °C, added: immobilised oxidised defensin loop peptide | Kd | 0.0095 µM
Nc1ncnc2c1ncn2[C@@H]1O[C@H](COP(=O)(O)OP(=O)(O)OP(=O)(O)O)[C@@H](O)[C@H]1O | Chemotaxis protein CheA, P4 domain (cheA, Thermotoga maritima, UniProt Q56310) | binding, competition with TNP analogue |  | 4 °C, added: Mg2+ | Kd | 11 ± 4 µM
